Published values collected from several papers.
Parts stem from different laboratories: compare values within a part only.
UniProt P37173, sequence (whole entry, looked up): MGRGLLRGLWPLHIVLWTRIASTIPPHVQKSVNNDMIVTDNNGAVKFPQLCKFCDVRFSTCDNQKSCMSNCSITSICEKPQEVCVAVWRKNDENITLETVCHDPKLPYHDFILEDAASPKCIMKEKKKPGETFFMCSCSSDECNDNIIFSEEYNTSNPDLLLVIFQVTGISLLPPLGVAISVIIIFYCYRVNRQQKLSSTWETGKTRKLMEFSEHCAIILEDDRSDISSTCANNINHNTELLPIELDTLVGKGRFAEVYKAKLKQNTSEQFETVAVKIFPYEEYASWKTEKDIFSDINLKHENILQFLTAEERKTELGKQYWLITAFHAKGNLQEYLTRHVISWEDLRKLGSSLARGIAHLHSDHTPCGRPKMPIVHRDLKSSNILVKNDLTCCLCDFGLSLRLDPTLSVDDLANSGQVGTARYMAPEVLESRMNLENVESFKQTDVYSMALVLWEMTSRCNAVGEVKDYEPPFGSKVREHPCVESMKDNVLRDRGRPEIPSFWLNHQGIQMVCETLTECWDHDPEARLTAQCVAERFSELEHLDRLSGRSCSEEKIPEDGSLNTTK
UniProt P00519, sequence (whole entry, looked up): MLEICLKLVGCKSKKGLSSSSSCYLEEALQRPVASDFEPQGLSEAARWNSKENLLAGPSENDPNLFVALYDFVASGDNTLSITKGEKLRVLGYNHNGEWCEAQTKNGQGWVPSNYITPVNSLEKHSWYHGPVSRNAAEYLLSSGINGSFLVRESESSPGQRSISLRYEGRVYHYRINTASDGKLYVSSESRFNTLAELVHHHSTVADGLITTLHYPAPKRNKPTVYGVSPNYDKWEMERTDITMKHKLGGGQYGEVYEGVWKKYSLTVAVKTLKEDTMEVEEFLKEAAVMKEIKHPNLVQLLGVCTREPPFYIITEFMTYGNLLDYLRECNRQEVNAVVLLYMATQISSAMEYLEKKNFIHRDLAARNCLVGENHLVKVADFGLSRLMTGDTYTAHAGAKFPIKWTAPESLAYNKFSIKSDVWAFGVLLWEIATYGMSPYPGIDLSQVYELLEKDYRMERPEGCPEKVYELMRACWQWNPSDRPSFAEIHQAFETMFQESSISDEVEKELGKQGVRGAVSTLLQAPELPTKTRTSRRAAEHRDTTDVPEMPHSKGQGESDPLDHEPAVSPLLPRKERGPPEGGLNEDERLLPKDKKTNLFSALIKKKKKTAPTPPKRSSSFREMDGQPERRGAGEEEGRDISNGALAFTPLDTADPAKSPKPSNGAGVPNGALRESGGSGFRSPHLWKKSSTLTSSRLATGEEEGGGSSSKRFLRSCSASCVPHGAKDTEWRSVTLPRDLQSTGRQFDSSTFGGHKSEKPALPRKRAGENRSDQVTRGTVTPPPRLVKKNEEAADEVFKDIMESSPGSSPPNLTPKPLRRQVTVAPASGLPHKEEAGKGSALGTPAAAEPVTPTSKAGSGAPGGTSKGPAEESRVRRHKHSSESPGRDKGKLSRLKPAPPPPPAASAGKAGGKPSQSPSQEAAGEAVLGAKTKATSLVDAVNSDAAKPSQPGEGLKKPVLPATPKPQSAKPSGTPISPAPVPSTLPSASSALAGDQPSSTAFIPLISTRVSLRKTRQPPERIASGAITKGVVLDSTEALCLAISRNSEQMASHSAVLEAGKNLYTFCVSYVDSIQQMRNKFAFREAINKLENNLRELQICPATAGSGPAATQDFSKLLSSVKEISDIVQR
UniProt Q14164, sequence (whole entry, looked up): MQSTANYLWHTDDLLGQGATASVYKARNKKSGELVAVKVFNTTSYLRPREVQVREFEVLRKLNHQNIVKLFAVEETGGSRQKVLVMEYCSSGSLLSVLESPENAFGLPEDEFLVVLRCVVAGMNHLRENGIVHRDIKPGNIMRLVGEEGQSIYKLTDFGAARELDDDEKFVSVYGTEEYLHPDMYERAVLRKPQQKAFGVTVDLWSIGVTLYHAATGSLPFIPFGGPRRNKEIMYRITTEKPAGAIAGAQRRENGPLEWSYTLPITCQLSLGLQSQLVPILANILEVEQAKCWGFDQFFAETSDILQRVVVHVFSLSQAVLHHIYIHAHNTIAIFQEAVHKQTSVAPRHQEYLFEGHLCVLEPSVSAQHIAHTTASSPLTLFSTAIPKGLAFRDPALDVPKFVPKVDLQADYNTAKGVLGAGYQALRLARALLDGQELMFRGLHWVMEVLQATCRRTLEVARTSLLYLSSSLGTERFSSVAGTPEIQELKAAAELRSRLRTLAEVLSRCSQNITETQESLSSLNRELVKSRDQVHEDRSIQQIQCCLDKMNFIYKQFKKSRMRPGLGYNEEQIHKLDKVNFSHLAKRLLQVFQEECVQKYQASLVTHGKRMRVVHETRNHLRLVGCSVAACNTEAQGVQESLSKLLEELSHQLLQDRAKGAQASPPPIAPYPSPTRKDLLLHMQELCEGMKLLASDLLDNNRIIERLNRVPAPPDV
UniProt Q13557, sequence (whole entry, looked up): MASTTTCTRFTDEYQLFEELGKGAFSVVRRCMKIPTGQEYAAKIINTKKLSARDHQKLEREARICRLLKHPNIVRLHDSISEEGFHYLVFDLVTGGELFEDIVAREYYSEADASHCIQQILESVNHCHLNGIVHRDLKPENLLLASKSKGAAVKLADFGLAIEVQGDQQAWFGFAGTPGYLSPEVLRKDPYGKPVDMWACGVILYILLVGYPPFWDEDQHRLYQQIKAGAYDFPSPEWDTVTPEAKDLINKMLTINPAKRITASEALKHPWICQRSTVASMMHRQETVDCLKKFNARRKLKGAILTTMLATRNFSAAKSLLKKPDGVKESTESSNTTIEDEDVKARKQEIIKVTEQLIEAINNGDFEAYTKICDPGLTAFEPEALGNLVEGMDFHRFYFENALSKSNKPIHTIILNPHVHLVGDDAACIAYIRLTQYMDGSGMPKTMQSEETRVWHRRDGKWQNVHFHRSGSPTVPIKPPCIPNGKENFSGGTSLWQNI
UniProt P04049, sequence (whole entry, looked up): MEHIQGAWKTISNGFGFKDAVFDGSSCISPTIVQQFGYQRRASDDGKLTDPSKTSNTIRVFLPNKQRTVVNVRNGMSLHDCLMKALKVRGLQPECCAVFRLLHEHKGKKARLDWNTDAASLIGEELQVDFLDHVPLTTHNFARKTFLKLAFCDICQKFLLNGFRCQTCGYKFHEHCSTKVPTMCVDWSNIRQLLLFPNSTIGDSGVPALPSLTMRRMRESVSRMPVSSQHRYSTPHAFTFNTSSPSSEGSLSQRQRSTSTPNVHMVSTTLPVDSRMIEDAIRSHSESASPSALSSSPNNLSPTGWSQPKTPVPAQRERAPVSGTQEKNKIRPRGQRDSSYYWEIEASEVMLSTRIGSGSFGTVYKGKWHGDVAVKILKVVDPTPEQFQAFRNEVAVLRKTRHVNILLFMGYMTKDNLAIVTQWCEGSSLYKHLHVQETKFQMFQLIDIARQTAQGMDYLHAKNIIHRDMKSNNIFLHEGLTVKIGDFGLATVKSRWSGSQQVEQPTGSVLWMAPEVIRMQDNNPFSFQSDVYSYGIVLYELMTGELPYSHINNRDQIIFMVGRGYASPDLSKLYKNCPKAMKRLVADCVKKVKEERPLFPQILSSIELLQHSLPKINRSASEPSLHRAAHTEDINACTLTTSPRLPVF
UniProt Q14012, sequence (whole entry, looked up): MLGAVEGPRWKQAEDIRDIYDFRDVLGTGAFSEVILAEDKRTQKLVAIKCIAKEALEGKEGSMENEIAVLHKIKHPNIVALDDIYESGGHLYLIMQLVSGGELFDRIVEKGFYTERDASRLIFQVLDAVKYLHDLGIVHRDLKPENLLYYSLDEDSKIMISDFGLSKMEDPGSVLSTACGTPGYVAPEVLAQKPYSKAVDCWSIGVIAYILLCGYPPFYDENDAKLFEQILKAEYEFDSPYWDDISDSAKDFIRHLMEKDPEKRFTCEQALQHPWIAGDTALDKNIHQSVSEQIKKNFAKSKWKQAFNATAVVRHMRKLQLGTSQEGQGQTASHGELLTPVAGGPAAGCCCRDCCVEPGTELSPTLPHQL
UniProt O96017, sequence (whole entry, looked up): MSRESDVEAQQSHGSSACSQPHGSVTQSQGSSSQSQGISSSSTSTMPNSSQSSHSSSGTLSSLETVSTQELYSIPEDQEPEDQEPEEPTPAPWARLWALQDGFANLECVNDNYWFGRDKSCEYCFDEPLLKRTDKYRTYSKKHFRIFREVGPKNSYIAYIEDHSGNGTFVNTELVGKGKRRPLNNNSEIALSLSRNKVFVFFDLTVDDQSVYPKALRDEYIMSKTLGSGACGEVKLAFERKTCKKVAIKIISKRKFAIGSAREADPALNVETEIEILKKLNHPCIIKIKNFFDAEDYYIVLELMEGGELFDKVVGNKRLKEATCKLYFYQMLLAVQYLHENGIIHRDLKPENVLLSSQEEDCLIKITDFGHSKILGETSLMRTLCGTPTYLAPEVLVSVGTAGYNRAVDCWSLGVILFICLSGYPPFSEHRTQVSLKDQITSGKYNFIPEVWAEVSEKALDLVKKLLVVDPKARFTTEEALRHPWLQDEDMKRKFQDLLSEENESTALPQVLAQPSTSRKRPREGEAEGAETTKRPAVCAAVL
UniProt Q15831, sequence (whole entry, looked up): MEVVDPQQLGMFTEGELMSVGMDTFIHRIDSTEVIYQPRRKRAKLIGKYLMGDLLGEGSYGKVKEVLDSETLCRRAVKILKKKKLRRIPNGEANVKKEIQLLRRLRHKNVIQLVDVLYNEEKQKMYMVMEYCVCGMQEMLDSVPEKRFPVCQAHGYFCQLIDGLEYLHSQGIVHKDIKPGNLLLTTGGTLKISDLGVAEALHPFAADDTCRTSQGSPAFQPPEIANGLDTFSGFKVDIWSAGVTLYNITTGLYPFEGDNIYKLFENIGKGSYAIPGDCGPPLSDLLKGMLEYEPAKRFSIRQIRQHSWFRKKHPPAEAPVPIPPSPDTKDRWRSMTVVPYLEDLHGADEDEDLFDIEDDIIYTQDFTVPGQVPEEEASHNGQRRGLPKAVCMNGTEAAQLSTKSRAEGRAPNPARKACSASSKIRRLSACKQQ

Sample 1
SMILES: CCCCN(CCCC)C(=O)CN1C[C@H](c2cc(OC)c3c(c2)OCO3)[C@@H](C(=O)O)[C@@H]1CC(C)(C)CCC
Read-out: cell-free assay
Technique: competition with immobilised ligand
Concentration: 1 µM
target	remaining binding
FLT3 (Homo sapiens, UniProt P36888, F691L/ITD)	90.6%
CLK1 (Homo sapiens, UniProt P49759)	96.1%
EPHA2 (Homo sapiens, UniProt P29317)	100%
Ribosomal protein S6 kinase alpha-4, N-terminal kinase domain (RPS6KA4, Homo sapiens, UniProt O75676)	100%
DYRK1A (Homo sapiens, UniProt Q13627)	73.1%
PIK3CA (Homo sapiens, UniProt P42336, C420R)	100%
FYN (Homo sapiens, UniProt P06241)	100%
RAF1 (Homo sapiens, UniProt P04049)	100%
CAMK1 (Homo sapiens, UniProt Q14012)	100%
BMX (Homo sapiens, UniProt P51813)	100%
DCLK1 (Homo sapiens, UniProt O15075)	80.2%
TGFBR2 (Homo sapiens, UniProt P37173)	100%
Tyrosine-protein kinase ABL1, phosphorylated (ABL1, Homo sapiens, UniProt P00519)	79.8%
GAK (Homo sapiens, UniProt O14976)	100%
CIT (Homo sapiens, UniProt O14578)	100%
PNCK (Homo sapiens, UniProt Q6P2M8)	86.5%

Sample 2
Host: human
Medium: microsomes or S9
Concentration: 2 µM
Time: 0.5 h
SMILES	remaining compound [%]
COC(=O)Cc1cc(=O)n2nc(C)c(-c3ccc(F)cc3)c2[nH]1	90.3
CC1(C)CC(=O)C2=C(C1)c1c(ccc3ccccc13)NC2c1cccnc1 (stereo not shown)	46
CC(C)N(c1cnn(C)c1)S(=O)(=O)c1cn(C(C)C)cn1	97
CC1(COc2ccc(Br)cc2)CCC(C(C)(C)C)=NO1 (stereo not shown)	87.6
CCOC(=O)Cn1c(=O)n(-c2cccc(O)c2)c2ncnc(N)c21	74.6
O=C(Nc1ccc(N2CCCS2(=O)=O)cc1)c1cc(C2CC2)nc2ccccc12	77.9
Cc1c(Br)c(-c2nc3c4ccccc4ncn3n2)nn1C	8.36
CC(C)(C)c1ccc(C(=O)Nc2cc(-n3cnnn3)ccc2N2CCOCC2)cc1	76.4
CCc1nc(C)c2c(n1)N(CCc1c(C)noc1C)C(=O)CC2	0.888
COC(=O)c1cc(Cl)c(NC(=O)c2cc(OC)c(OC)c(OC)c2)cc1OC	35.2
Cc1ncn(CCS(=O)(=O)c2ccc(C(C)(C)C)cc2)c(=O)c1C	81.2
O=c1c(C2CCCCC2)c(O)nc2n1CC(O)CS2 (stereo not shown)	62.6

Sample 3
SMILES: c1cc(-c2cnn3cc(-c4ccc(OCCN5CCCCC5)cc4)cnc23)ccn1
Read-out: enzyme activity
Action: inhibitor
Concentration: 0.5 µM
Relative to: control
target	remaining activity
STK11 (Homo sapiens, UniProt Q15831)	85.3%
CHEK2 (Homo sapiens, UniProt O96017)	92.7%
CAMKK2 (Homo sapiens, UniProt Q96RR4)	30.4%
IKBKB (Homo sapiens, UniProt O14920)	104%
STK39 (Homo sapiens, UniProt Q9UEW8)	76.8%
IKBKE (Homo sapiens, UniProt Q14164)	71.9%
MAPK9 (Homo sapiens, UniProt P45984)	87.8%
DAPK1 (Homo sapiens, UniProt P53355)	89.6%
PRKACA (Homo sapiens, UniProt P17612)	81.2%
Tyrosine-protein kinase Lyn, isoform B (LYN, Homo sapiens, UniProt P07948)	67.7%
OXSR1 (Homo sapiens, UniProt O95747)	99.4%
DAPK2 (Homo sapiens, UniProt Q9UIK4)	90.2%
Cyclin-dependent kinase 5, with p25 (CDK5, Homo sapiens, UniProt Q00535)	68.2%
Protein kinase C beta type, isoform beta-I (PRKCB, Homo sapiens, UniProt P05771)	103%
GRK3 (Homo sapiens, UniProt P35626)	93.3%
NEK2 (Homo sapiens, UniProt P51955)	102%
Cyclin-dependent kinase 4, with cyclin D1 (CDK4, Homo sapiens, UniProt P11802)	35.3%
STK10 (Homo sapiens, UniProt O94804)	41.8%
TGFBR2 (Homo sapiens, UniProt P37173)	18.7%
cGMP-dependent protein kinase 1, isoform beta (PRKG1, Homo sapiens, UniProt Q13976)	74%
TGFBR1 (Homo sapiens, UniProt P36897)	107%
PRKCA (Homo sapiens, UniProt P17252)	90.4%
CAMK2D (Homo sapiens, UniProt Q13557)	54.5%

Sample 4
Cell line: HuT78
Concentration: 2 µM
Time: 48 h
Relative to: untreated
SMILES	viability [%]
COc1cc2ncnc(Nc3cccc(Cl)c3)c2cc1OC	128
COc1ccc(-c2ccc3ncc4c(c3c2)n(-c2ccc(N3CCNCC3)c(C(F)(F)F)c2)c(=O)n4C)cn1	5.54
CCCCCCCCCCCCc1ccc(S(=O)(=O)Nc2nncs2)cc1	114
Nc1cccc(-c2cc3c(Oc4cccc(O)c4)ncnc3[nH]2)c1	102
CN1CCCN(C(=O)c2cccc(-c3ccc(/C=C4/C(=O)Nc5ccc(Cl)cc54)o3)c2)CC1	9.92
COC(=O)Nc1ccc(-c2nc(N3CCOCC3)c3cnn(C4CCN(C(=O)OC)CC4)c3n2)cc1	118
COc1ccc2c(Oc3ccc(NC(=O)c4c(C)n(CC(C)(C)O)n(-c5ccccc5)c4=O)nc3)ccnc2c1	127
CO[C@H]1C[C@@H]2CC[C@@H](C)[C@@](O)(O2)C(=O)C(=O)N2CCCC[C@H]2C(=O)O[C@H]([C@H](C)C[C@@H]2CC[C@@H](OC(=O)C(C)(CO)CO)[C@H](OC)C2)CC(=O)[C@H](C)/C=C(\C)[C@@H](O)[C@@H](OC)C(=O)[C@H](C)C[C@H](C)/C=C/C=C/C=C/1C	91.6
C=CC(=O)Nc1cccc(Nc2nc(Nc3ccc(N4CCN(C(C)=O)CC4)cc3OC)ncc2C(F)(F)F)c1	76.2
O=S(=O)(NCCNC/C=C/c1ccc(Br)cc1)c1cccc2cnccc12	120

Some of these lines once more (sample 4):
SMILES	viability [%]
COc1ccc2c(Oc3ccc(NC(=O)c4c(C)n(CC(C)(C)O)n(-c5ccccc5)c4=O)nc3)ccnc2c1	127
CO[C@H]1C[C@@H]2CC[C@@H](C)[C@@](O)(O2)C(=O)C(=O)N2CCCC[C@H]2C(=O)O[C@H]([C@H](C)C[C@@H]2CC[C@@H](OC(=O)C(C)(CO)CO)[C@H](OC)C2)CC(=O)[C@H](C)/C=C(\C)[C@@H](O)[C@@H](OC)C(=O)[C@H](C)C[C@H](C)/C=C/C=C/C=C/1C	91.6
COC(=O)Nc1ccc(-c2nc(N3CCOCC3)c3cnn(C4CCN(C(=O)OC)CC4)c3n2)cc1	118
COc1cc2ncnc(Nc3cccc(Cl)c3)c2cc1OC	128
